Experimental data collected from several papers.
Every numbered part comes from another study and shows a few of its results, in no order. Substitutions count along the parent as printed.

Block 1 — method: RNA Bind-n-Seq; form: RNA; matrix: in vitro; concentration: 1 µM; notes: whole 134-nt RNA, ends assumed; together with: 150 mM KCl; reference: input library; reading: higher = stronger binding; quantity: log2 enrichment
Target: Ras GTPase-activating protein-binding protein 1, C-terminal RGG region (G3BP1, Homo sapiens, UniProt Q13283)
UniProt Q13283, sequence (whole entry, looked up): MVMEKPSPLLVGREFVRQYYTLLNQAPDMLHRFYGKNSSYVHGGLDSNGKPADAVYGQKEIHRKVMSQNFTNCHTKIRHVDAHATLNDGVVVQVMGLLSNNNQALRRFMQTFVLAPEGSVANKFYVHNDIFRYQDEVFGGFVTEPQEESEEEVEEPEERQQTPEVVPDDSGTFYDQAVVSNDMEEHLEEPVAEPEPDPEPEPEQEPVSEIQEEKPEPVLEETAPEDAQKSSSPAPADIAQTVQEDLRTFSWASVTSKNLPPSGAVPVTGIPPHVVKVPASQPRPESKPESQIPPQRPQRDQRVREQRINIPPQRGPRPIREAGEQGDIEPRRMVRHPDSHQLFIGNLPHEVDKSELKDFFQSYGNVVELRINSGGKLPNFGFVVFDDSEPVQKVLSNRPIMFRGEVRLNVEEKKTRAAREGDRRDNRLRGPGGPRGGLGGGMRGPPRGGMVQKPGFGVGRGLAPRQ
All sequences stand within: GGGAGUUCUACAGUCCGACGAUC … UGGAAUUCUCGGGUGUCAAGG
UUCUUUGCCCAACGGGGCCGUGGAUACCUGCCUUUUAAUUCUUUUUUAUUCGCCCAUCGGGGCCGCGGAUACCUGCUUUUUAUUUUUUUU: -0.359
UUAAAGAAAUGUCCACAAGUAACUUUGAAUCAUCUCCUGAAGUAGAAGAAAGGCCUGCUGUGUCUUUGACUCUUGAUCAGAGCCAGUCAC: -1.2
CUCAACGUUGACAGUAAUGAACAAGGCUCCUAUGUAGUGGCCAUGGAAACCUUUACCAACUUAGGACCCAUUGUCGAUAUGUGCGUGGUG: -0.779
CACAGACAACACGCACCCACACAGACACAGAGGGAAGGGGUUGGGAUGGGGACAGGGUGCACAGCAGGGCGGGGUAGGACCCAAACCCCU: -0.299
GGAUCAAAGCAAGUUGGAGAAACAUCAGCACCUGGAGACACCUUAGAUGGCACACCUCGUACUCUCAAUACUGUCUUUGAUUUCCCACCA: -0.0574
UCAAGUCCUGUGCUACACAUCGUAUGUACCGAAUCGGUUUUUUUGGUGGAAAGGAAAGUAUUAUGUUACGCCGUUCGGAUCUGCACUUCC: -1.19
AGUCCUGUGCUACACAUCGUAUGUACCGAAUCGGAAAAGGGGAAAAGGGGAAAAGGGGAAAGUAUUAUGUUACGCCGUUCGGAUCUGCAC: -0.182

Block 2 — method: DHFR PCA, deep sequencing; matrix: yeast; together with: (+)-ABA 17 µM; reference: wild-type fitted maximum; reading: higher = stronger binding; quantity: relative binding score
Target: ABI1, truncated, D143A, DHFR fusion (Arabidopsis thaliana)
Notes: methotrexate growth selection, single substitutions
Starting sequence: PYL1, truncated, DHFR fusion (Arabidopsis thaliana); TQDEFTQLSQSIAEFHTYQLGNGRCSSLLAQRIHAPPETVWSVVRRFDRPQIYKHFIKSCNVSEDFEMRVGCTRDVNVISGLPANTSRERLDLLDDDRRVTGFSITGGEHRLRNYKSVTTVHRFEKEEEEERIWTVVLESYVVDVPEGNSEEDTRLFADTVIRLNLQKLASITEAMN
L164Y: 86.5%
E147A: 81.3%
R98Y: 39.8%
L91I: -18.7%
Y115M: 8.39%
R45S: 46.6%
E127A: 83.1%
S9H: 76%
L28Y: 31.4%

Block 3 — target: CCND2, cyclin fold, Cln2 fusion (human); method: yeast growth competition, sequencing; matrix: yeast; notes: weak parent motif; reference: not given; reading: higher = stronger binding; quantity: normalised enrichment score
Starting sequence: GMNC docking peptide (human); KNAKRNLSSEFAN
K4W: -0.0823
A3T: 0.211
N6A: 0.00418
N6I: -0.207
A3V: 0.304
K4Y: 0.322
E10T: -0.243
S8R: 0.179
S9C: 0.32
L7M: 0.102

Block 4 — method: protein-binding microarray; form: double-stranded DNA, one strand shown; matrix: in vitro; concentration: 2200 nM top; notes: 60-bp whole probe; together with: salmon DNA 0.4 mg/ml; reference: random background probes; reading: higher = stronger binding; quantity: fitted relative affinity; all sequences stand within: GCCTAGCAC … GTCTTGATTCGCTTGACGCTGCTG
Target: Interferon regulatory factor 7, full length, phosphomimetic (IRF7, Homo sapiens, UniProt Q92985, residues 1-503, S471D/S472D/S475D/S476D/S477D/S483D/S484D/S487D)
UniProt Q92985, sequence (whole entry, unmodified, looked up): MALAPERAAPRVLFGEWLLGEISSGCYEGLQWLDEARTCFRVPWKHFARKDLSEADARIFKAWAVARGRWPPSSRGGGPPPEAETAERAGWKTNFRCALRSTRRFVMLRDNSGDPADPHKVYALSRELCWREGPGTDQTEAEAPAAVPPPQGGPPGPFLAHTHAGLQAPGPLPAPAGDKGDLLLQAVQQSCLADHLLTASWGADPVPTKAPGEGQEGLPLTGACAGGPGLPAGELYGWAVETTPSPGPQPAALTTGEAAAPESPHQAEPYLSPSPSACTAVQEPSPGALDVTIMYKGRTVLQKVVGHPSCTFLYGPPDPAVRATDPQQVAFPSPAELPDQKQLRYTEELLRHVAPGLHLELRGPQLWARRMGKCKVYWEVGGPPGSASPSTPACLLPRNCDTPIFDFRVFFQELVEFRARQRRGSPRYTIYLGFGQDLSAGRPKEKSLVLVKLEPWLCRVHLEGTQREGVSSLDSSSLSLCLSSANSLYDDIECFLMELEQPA
AGATATTTAGAACTTCTCCACGTGCTA: -0.135 z-score
TTAAGTTTCCTTATCCTTTAGTGCTAG: 2.73 z-score
GACGAGCTGAGTCTCGAGACGTGCTAG: -0.253 z-score
GACGAACTGGGGTATCGAGAGGTGCTA: -0.263 z-score
AGGTTGATGGCTCTCTGGACGTGCTAG: -0.127 z-score
TCATTTGTCCCTATTTAACTGTGCTAG: 2.63 z-score
TTAGGTTGCGGGACTGGGTTAGTGCTA: -0.33 z-score
TCATACATGAGTTTAGAACTGTGCTAG: 0.00442 z-score
TACAGGATGGTTTTCAGAGAGTGCTAG: 0.0215 z-score
TTAGATTCTAGTTTCGATTAGTGCTAG: 7.4 z-score
GACGGTCTCGGACTGGTGACGTGCTAG: -0.329 z-score
TTAGATTTAAGTATCGATTAGTGCTAG: -0.149 z-score
TTAGGTTTCACTTTCCAAAAGTGCTAG: 7.01 z-score
TCCTCTGTCATTTTCTCTTAGTGCTAG: 2.69 z-score
GACGGTTTCGACTTTCGGAACGTGCTA: 8.59 z-score
CTGCAGCCCACTCCTGAACAGTGCTAG: -0.0682 z-score
GGACCGACCCCTCCATCCCTGTGCTAG: -0.381 z-score
GTCGGTTTCCTTCTCCTGACGTGCTAG: 4.27 z-score
TTAGGTATCGGTTTGGGTTAGTGCTAG: 2.71 z-score
TTAGGTCTCGGGATCGGTTAGTGCTAG: 0.239 z-score
ATTTTTTTCTAATTGAAATCGTGCTAG: 1.73 z-score
GACGGTATCCTTTTCCTGCCGTGCTAG: 1.24 z-score
TTAGGACTGGACTATCCGTTAGTGCTA: -0.333 z-score

Block 5 — method: protein-binding microarray; form: hairpin DNA; matrix: in vitro; concentration: not given; reference: not given; reading: higher = stronger binding; quantity: median fluorescence
Target: Runt-related transcription factor 3, Runt domain (RUNX3, Homo sapiens, UniProt Q13761, residues 53-186)
UniProt Q13761, sequence (53-186, looked up): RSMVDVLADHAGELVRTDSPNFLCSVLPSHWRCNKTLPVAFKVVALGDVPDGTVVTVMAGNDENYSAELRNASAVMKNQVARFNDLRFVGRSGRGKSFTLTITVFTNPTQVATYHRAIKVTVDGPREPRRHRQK
Notes: whole hairpin DNA, median over replicate spots
GAGGCCTGTCGCGGCTGGCCTCCTGGCCAGCCGCGACAGGCCTCACACTC: 5830 a.u.
GAGGCCCAACCGCCGCAGCCTCCTGGCTGCGGCGGTTGGGCCTCACACTC (5mC at 14 30): 6620 a.u.
GAGGCCTGACGCGGTTGGCCTCCTGGCCAACCGCGTCAGGCCTCACACTC: 5310 a.u.
GAGGCCTGTCCCGGTTGGCCTCCTGGCCAACCGGGACAGGCCTCACACTC (5mC at 11): 5040 a.u.
GAGGCCTGTTGCGTTTGGCCTCCTGGCCAAACGCAACAGGCCTCACACTC: 4430 a.u.
CTCAGTTCGGTGGGCTGGACTCCTGTCCAGCCCACCGAACTGAGACACTC (5mC at 36): 4150 a.u.
GAGGCCTGTTGTGGCGGGCCTCCTGGCCCGCCACAACAGGCCTCACACTC (5mC at 15 29): 5330 a.u.
GAGGCCTGTTGTGGCGGGCCTCCTGGCCCGCCACAACAGGCCTCACACTC: 5010 a.u.
GAGGCCCAACCGCACCAGCCTCCTGGCTGGTGCGGTTGGGCCTCACACTC (5mC at 15): 6600 a.u.
GAGGCCTGTCCGGGTTGGCCTCCTGGCCAACCCGGACAGGCCTCACACTC (5mC at 11): 4800 a.u.
CTCAGTTCTGTAGGCTGGACTCCTGTCCAGCCTACAGAACTGAGACACTC: 4100 a.u.
GAGGCCCCGCCGCAACAGCCTCCTGGCTGTTGCGGCGGGGCCTCACACTC (5mC at 36): 6340 a.u.
GAGGCCTGTTGCGGTAGGCCTCCTGGCCTACCGCAACAGGCCTCACACTC: 5270 a.u.
GAGGCGTGTCGCGGTTGGCCTCCTGGCCAACCGCGACACGCCTCACACTC (5mC at 39): 6450 a.u.
GAGGCCTGGTGTGGTTGGCCTCCTGGCCAACCACACCAGGCCTCACACTC (5mC at 36): 5540 a.u.
GAGGCCTGTTGCGGCTGGCCTCCTGGCCAGCCGCAACAGGCCTCACACTC: 5990 a.u.

Block 6 — target: UBE2E1 UBC core domain (UniProt P51965); method: yeast two-hybrid; matrix: yeast; notes: mostly zero background; reference: not given; reading: higher = stronger interaction; quantity: lacZ reporter activity
UniProt P51965, sequence (whole entry, looked up): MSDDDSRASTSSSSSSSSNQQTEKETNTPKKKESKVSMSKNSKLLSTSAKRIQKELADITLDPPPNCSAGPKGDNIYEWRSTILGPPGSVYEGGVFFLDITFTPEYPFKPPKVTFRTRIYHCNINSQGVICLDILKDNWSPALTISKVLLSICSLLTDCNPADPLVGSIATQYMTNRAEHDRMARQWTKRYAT
B1: VPS41 RING domain (UniProt P49754); chain KGVLVDEENICESCLSPILPSDAAKPFSVVVFHCRHMFHKECLPMPSMNSAAQFCNICSAKNRGPGSAI
B2: TRIM4 RING domain (UniProt Q9C037); chain EAEDIQEELTCPICLDYFQDPVSIECGHNFCRGCLHRNWAPGGGPFPCPECRHPSAPAALRP
B3: DTX4 RING domain (UniProt Q9Y2E6); chain QKVRHPPDEDCTICMERLTAPSGYKGPQPTVKPDLVGKLSRCGHVYHIYCLVAMYNNGNKDGSLQCPTCKTIYGVKTGTQ
B4: RNF208 RING domain (UniProt Q9H0X6); chain SSAAAGEPLECPTCGHSYNVTQRRPRVLSCLHSVCEQCLQILYESCPKYKFISCPTCRRETVLFTDYG
B5: TRAF5 RING domain (UniProt O00463); chain FVERLEERYKCAFCHSVLHNPHQTGCGHRFCQHCILSLRELNTVPICPVDKEVIKSQEVFK
B1 (VPS41 RING domain): 0
GAAPGPEAAECLVCSELALLVLFSPCQHRTVCEECARRMKKCIRCQVVVSKKLRPD (MIB2 RING domain (UniProt Q96AX9)): 0
B2 (TRIM4 RING domain): 0
VEPSEENSKDCVVCQNGTVNWVLLPCRHTCLCDGCVKYFQQCPMCRQFVQESFALC (CGRRF1 RING domain (UniProt Q99675)): 0
B3 (DTX4 RING domain): 0
B4 (RNF208 RING domain): 0
B5 (TRAF5 RING domain): 0
FQGDVDEDLICPICSGVLEEPVQAPHCEHAFCNACITQWFSQQQTCPVDRSVVTVAHLRP (RNF41 RING domain (UniProt Q9H4P4)): 0

Block 7 — method: universal PBM; form: double-stranded DNA, one strand shown; matrix: in vitro; concentration: not given; reading: higher = stronger binding; quantity: E-score
Target: Sal-like protein 4, full length isoform B (SALL4, Homo sapiens, UniProt Q9UJQ4-2, residues 1-616)
Notes: 8-mer, flanks averaged, mean of replicates
CGCCCGGC: -0.382
GGCAGATA: -0.0508
CACAGTGA: -0.0597
CGGCCAGC: -0.219
ACTGTAGG: 0.07
GGCGGAAC: -0.243
AGTCGATC: -0.19
ACCGCGCC: -0.308
CCAGACCG: -0.336
GTGGGAGA: -0.137
CACACTTC: -0.0124
ATTGCTGG: 0.0565
CACCAGTG: -0.177
AGAGGGGG: -0.143
AATGGGGA: -0.079
CTCTTCTC: -0.0606
ATGAGAAC: 0.15
AATCGCGA: 0.0243
ATATTGCA: 0.323
